Results pooled from the literature.
Lines come from different studies, so protocols differ.
Method: steady-state kinetics
B1: enzyme (Thermus thermophilus, UniProt Q72J81); chain MEVKRIGVVGAGQMGSGIAQVAASAGYEVVLVDVAESFLERGLAAIRRSLGKFLEKGKITQEAHDEALGRIRTSLSLEDLKDADLIVEAIVEDEGEKRRLFERLGALAKPEAILASNTSSIPITALARYSGRPERFIGMHFFNPVPLMQLVEVIRGELTSEATRDVVVEVARRMGKTPLEVQDYPGFISNRLLMPMINEAIEALREGVATKEAIDGIMRLGMNHPMGPLELADFIGLDTCLAIMEVLHRGFGDDKYRPSPLLRRMVQAGLLGRKAGRGFYTYDEKGNKVG
B2: TenA_E (Arabidopsis thaliana, UniProt Q9ASY9); chain MEKRGVIDTWIDKHRSIYTAATRHAFVVSIRDGSVDLSSFRTWLGQDYLFVRRFVPFVASVLIRACKDSGESSDMEVVLGGIASLNDEIEWFKREGSKWDVDFSTVVPQRANQEYGRFLEDLMSSEVKYPVIMTAFWAIEAVYQESFAHCLEDGNKTPVELTGACHRWGNDGFKQYCSSVKNIAERCLENASGEVLGEAEDVLVRVLELEVAFWEMSRGGQ
B3: enzyme D185A (Thermococcus kodakarensis, UniProt Q5JID5); chain MLYVEILGNLPEMARDEVKAMLELGGGEIIGQDYLFLKVDAGEKAFPFLDRLGLAHEYGLLLVEADSVEELLQKAGEVEWPIKGAFKVDTETMANCRHDVLDLPRKLGAVIHAQGFRVNLSKPDTVVRVYCGERLYAGIRLRYFDPKDFEKRKAHHRPFFRPISLHPRVSRALVNLTKATREILAPFMGAGGILIEAGLLGLRVYGVDIRPEMVEGAETNLKHYGVRDYTLKLGDATRLEDLFPDKKFEAVATDPPYGTAATLAGRKRDELYRKALRSIYNVLEDGGRLAIAFPTDFNGKAEAEAVGFRTLGRYYQRVHKSLERYFYVFEK
B4: octaprenyl-diphosphate synthase (Bacteroides fragilis, UniProt Q5LIZ3); chain MDSLSLIKSPITTELEDFKNLFDSSLSSSNLLLNNVIAHIRQRNGKMMRPILVLLVAKLYGEIKPETLHAAVSLELLHTASLVHDDVVDESTERRGQLSVNAIFNNKVAVLVGDFLLATSLVHAERTRNHDIIGVVACLGQDLAEGEILQLSNVSNREYSETIYFDVIRKKTAALFAACTKAAALSVEVTDEKAEFARLFGENIGICFQIKDDIFDYFESKEIGKPTGNDMLEGKLTLPALYVLNTTTDAWAQEMALRVKAGTATVDEITRLIEFIKQNGGIEYAVKVMYEYKERALDLLRTLPDSAVKTSLITYLDYVVDRDK
B5: Rtr1 residues 1-178 (Saccharomyces cerevisiae, UniProt P40084); chain MATIEDIKETALIPFQKHRQLSMHEAEVITLEIIGLLCDSECKDEKTLKYLGRFLTPDMYQDLVDERNLNKRCGYPLCGKSPERIRDPFSMNDTTKKFLLENNPYAYLSHYCSKFHFRCSQFYQVQLSDEALFARTGVHLFEDPEQDKHDIDFKVTLFEELLREKASEEDIKSLISGL
B6: PRODH2 157-515 (Homo sapiens, UniProt Q9UF12); chain YGQFVAGETAEEVKGCVQQLRTLSLRPLLAVPTEEEPDSAAKSGEAWYEGNLGAMLRCVDLSRGLLEPPSLAEASLMQLKVTALTSTRLCKELASWVRRPGASLELSPERLAEAMDSGQNLQVSCLNAEQNQHLRASLSRLHRVAQYARAQHVRLLVDAEYTSLNPALSLLVAALAVRWNSPGEGGPWVWNTYQACLKDTFERLGRDAEAAHRAGLAFGVKLVRGAYLDKERAVAQLHGMEDPTQPDYEATSQSYSRCLELMLTHVARHGPMCHLMVASHNEESVRQATKRMWELGIPLDGTVCFGQLLGMCDHVSLALGQAGYVVYKSIPYGSLEEVIPYLIRRAQENRSVLQGARRE
B7: YdjH (Escherichia coli, UniProt P77493); chain MDNLDVICIGAAIVDIPLQPVSKNIFDVDSYPLERIAMTTGGDAINEATIISRLGHRTALMSRIGKDAAGQFILDHCRKENIDIQSLKQDVSIDTSINVGLVTEDGERTFVTNRNGSLWKLNIDDVDFARFSQAKLLSLASIFNSPLLDGKALTEIFTQAKARQMIICADMIKPRLNETLDDICEALSYVDYLFPNFAEAKLLTGKETLDEIADCFLACGVKTVVIKTGKDGCFIKRGDMTMKVPAVAGITAIDTIGAGDNFASGFIAALLEGKNLRECARFANATAAISVLSVGATTGVKNRKLVEQLLEEYEG
B8: ALDH4A1 S352A (Homo sapiens, UniProt P30038); chain TGAGLRWKHTSSLKVANEPVLAFTQGSPERDALQKALKDLKGRMEAIPCVVGDEEVWTSDVQYQVSPFNHGHKVAKFCYADKSLLNKAIEAALAARKEWDLKPIADRAQIFLKAADMLSGPRRAEILAKTMVGQGKTVIQAEIDAAAELIDFFRFNAKYAVELEGQQPISVPPSTNSTVYRGLEGFVAAISPFNFTAIGGNLAGAPALMGNVVLWKPSDTAMLASYAVYRILREAGLPPNIIQFVPADGPLFGDTVTSSEHLCGINFTGSVPTFKHLWKQVAQNLDRFHTFPRLAGECGGKNFHFVHRSADVESVVSGTLRSAFEYGGQKCSACARLYVPHSLWPQIKGRLLEEHSRIKVGDPAEDFGTFFSAVIDAKSFARIKKWLEHARSSPSLTILAGGKCDDSVGYFVEPCIVESKDPQEPIMKEEIFGPVLSVYVYPDDKYKETLQLVDSTTSYGLTGAVFSQDKDVVQEATKVLRNAAGNFYINDKSTGSIVGQQPFGGARASGTNDKPGGPHYILRWTSPQVIKETHKPLGDWSYAYMQ
B9: UCK2 (Homo sapiens, UniProt Q9BZX2); chain MAGDSEQTLQNHQQPNGGEPFLIGVSGGTASGKSSVCAKIVQLLGQNEVDYRQKQVVILSQDSFYRVLTSEQKAKALKGQFNFDHPDAFDNELILKTLKEITEGKTVQIPVYDFVSHSRKEETVTVYPADVVLFEGILAFYSQEVRDLFQMKLFVDTDADTRLSRRVLRDISERGRDLEQILSQYITFVKPAFEEFCLPTKKYADVIIPRGADNLVAINLIVQHIQDILNGGPSKRQTNGCLNGYTPSRKRQASESSSRPH
B10: GTPBP3 A162P (Homo sapiens, UniProt Q969Y2); chain TRRSSGAPAPGSGATIFALSSGQGRCGIAVIRTSGPASGHALRILTAPRDLPLARHASLRLLSDPRSGEPLDRALVLWFPGPQSFTGEDCVEFHVHGGPAVVSGVLQALGSVPGLRPAEAGEFTRRAFANGKLNLTEVEGLPDLIHAETEAQRRQALRQLDGELGHLCRGWAETLTKALAHVEAYIDFGEDDNLEEGVLEQADIEVRALQVALGAHLRDARRGQRLRSGVHVVVTGPPNAGKSSLVNLLSRKPVSIVSPEPGTTRDVLETPVDLAGFPVLLSDTAGLREGVGPVEQEGVRRARERLEQADLILAMLDASDLASPSSCNFLATVVASVGAQSPSDSSQRLLLVLNKSDLLSPEGPGPGPDLPPHLLLSCLTGEGLDGLLEALRKELAAVCGDPSTDPPLLTRARHQHHLQGCLDALGHYKQSKDLALAAEALRVARGHLTRLTGGGGTEEILDIIFQDFCVGK
Chain of UniProt O60656 (whole entry, looked up): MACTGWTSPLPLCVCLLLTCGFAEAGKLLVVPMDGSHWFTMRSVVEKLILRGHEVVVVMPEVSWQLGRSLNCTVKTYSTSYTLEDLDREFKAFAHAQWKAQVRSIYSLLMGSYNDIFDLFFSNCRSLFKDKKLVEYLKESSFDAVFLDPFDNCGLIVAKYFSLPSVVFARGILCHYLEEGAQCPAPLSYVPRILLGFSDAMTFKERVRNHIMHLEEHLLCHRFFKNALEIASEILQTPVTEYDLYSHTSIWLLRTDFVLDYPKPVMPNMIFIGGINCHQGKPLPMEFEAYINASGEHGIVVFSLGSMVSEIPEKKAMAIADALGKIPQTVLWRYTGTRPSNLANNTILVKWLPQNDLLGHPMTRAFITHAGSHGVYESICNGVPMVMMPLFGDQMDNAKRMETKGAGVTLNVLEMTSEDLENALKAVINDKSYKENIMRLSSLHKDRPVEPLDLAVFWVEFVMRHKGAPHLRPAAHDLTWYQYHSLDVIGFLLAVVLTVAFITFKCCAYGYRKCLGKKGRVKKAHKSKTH
Chain of UniProt Q04049 (whole entry, looked up): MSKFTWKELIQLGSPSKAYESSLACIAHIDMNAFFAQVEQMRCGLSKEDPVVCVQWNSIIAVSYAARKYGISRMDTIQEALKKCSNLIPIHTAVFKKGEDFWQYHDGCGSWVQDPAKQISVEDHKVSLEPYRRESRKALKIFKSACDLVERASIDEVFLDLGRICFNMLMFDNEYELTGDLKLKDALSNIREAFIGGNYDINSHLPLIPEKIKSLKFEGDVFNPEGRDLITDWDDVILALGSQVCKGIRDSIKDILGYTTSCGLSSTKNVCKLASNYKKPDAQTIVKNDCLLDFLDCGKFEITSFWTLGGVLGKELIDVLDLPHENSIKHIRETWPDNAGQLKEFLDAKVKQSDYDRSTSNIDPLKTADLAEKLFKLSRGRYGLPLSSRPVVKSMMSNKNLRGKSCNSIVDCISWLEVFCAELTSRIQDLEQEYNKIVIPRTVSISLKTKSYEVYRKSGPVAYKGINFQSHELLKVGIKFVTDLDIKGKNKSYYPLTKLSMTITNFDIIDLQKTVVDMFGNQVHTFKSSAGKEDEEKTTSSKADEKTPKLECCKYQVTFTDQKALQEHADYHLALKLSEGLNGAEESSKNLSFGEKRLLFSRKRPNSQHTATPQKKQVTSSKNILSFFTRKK
Chain of UniProt P07914 (whole entry, looked up): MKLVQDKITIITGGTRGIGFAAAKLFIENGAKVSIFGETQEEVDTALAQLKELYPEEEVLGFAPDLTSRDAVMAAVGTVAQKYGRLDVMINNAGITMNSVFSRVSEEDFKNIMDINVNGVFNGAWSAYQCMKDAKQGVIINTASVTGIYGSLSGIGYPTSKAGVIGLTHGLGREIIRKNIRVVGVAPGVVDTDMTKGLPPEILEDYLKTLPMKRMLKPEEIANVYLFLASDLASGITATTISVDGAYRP
Chain of UniProt P45370 (whole entry, looked up): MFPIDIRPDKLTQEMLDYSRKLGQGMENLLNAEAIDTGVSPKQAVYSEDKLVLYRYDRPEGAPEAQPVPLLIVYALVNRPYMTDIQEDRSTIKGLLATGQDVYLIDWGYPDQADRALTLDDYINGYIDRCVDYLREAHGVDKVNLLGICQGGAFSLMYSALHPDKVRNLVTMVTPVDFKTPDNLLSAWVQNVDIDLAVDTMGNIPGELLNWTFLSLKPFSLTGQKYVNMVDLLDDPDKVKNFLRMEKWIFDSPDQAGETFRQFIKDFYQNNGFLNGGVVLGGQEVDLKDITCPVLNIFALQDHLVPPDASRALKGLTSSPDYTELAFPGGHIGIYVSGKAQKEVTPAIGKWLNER

Substance	substrate	conditions	endpoint	result
B1 (enzyme)	NC(=O)C1=CN([C@@H]2O[C@H](COP(=O)(O)OP(=O)(O)OC[C@H]3O[C@@H](n4cnc5c(N)ncnc54)[C@H](O)[C@@H]3O)[C@@H](O)[C@H]2O)C=CC1	pH 7, 65 °C, cofactor varied	Km	33.4 µM
protein (Allochromatium vinosum, UniProt P45370)	C#CC[C@@H](O)CC(=O)SCCNC(=O)CCNC(=O)[C@H](O)C(C)(C)COP(=O)(O)OP(=O)(O)OC[C@H]1O[C@@H](n2cnc3c(N)ncnc32)[C@H](O)[C@@H]1OP(=O)(O)O	pH 7.8, 30 °C	Km	50 µM
RAD30 (Saccharomyces cerevisiae, UniProt Q04049)	Nc1nc2c(ncn2[C@H]2C[C@H](O)[C@@H](COP(=O)(O)OP(=O)(O)OP(=O)(O)O)O2)c(=O)[nH]1	pH 7.5, apparent Km, opposite dT, undamaged template, apparent, added: MgCl2 10 mM	Km	59 µM
BaiA1 (Clostridium scindens, UniProt P07914)	C[C@H](CCC(=O)SCCNC(=O)CCNC(=O)[C@H](O)C(C)(C)COP(=O)(O)OP(=O)(O)OC[C@H]1O[C@@H](n2cnc3c(N)ncnc32)[C@H](O)[C@@H]1OP(=O)(O)O)[C@H]1CC[C@H]2[C@@H]3[C@H](O)C[C@@H]4C[C@H](O)CC[C@]4(C)[C@H]3CC[C@]12C	pH 8.7, 37 °C, added: NAD+	Km	53 µM
B2 (TenA_E)	Cc1ncc(CNC=O)c(N)n1	pH 7.5, 30 °C, formylamino-HMP amidohydrolase activity, added: 450 mM glycine betaine	Km	70 µM
UGT1A9 (Homo sapiens, UniProt O60656)	Cc1ccc(O)cc1	pH 7.4, 37 °C	Vmax	0.00143 µmol/min/mg
B3 (enzyme D185A)	C[S+](CC[C@H](N)C(=O)O)C[C@H]1O[C@@H](n2cnc3c(N)ncnc32)[C@H](O)[C@@H]1O	pH 7.5, 50 °C, apparent	Km	6 µM
B4	C=C(C)CCO[P@@](=O)(O)OP(=O)(O)O	pH 7.6, 37 °C, added: FPP; Triton X-100.1%; MgCl2 10 mM	Km	11 µM
B5 (Rtr1 residues 1-178)	Cc1cc(=O)oc2c(F)c(OP(=O)(O)O)c(F)cc12	pH 6, NaCl 150 mM, no metal added	Km	20.4 µM
B6 (PRODH2 157-515)	O=C(O)[C@@H]1C[C@@H](O)CN1	pH 7.5, 25 °C, added: O2	Km	28000 µM
B7 (YdjH)	OC[C@H]1O[C@H](CO)[C@@H](O)[C@@H]1O	pH 7.4, 30 °C, KCl 100 mM, added: ATP 2.0 mM, MgCl2 5.0 mM	Km	44000 µM
B8 (ALDH4A1 S352A)	O=C(O)[C@@H]1CCC=N1	pH 7, 20 °C, value for L-P5C, added: NAD+	Km	51 µM
B9 (UCK2)	Nc1ccn([C@@H]2O[C@H](CO)[C@@H](O)[C@H]2O)c(=O)n1	pH 7.2, 25 °C, KCl 100 mM, added: ATP 100–200 µM	Km	42 µM
B10 (GTPBP3 A162P)	Nc1nc2c(ncn2[C@@H]2O[C@H](COP(=O)(O)OP(=O)(O)OP(=O)(O)O)[C@@H](O)[C@H]2O)c(=O)[nH]1	pH 8, 37 °C, KCl 300 mM	Km	91 µM

A few entries again:
Substance	substrate	conditions	endpoint	result
B5 (Rtr1 residues 1-178)	Cc1cc(=O)oc2c(F)c(OP(=O)(O)O)c(F)cc12	pH 6, NaCl 150 mM, no metal added	Km	20.4 µM
